{"data": "Values quoted from earlier work as cited in several papers", "note": "Each numbered part shows a few of the values that one paper quotes."}
{"data": "Block 1", "organism": "Cryptosporidium parvum", "technique": "high-throughput screen", "tested at": "concentration not given"}
{"Compound": "COc1cc2c(cc1OC)C(=O)C(CC1CCN(Cc3ccccc3)CC1)C2 (stereo not drawn)", "activity": "inactive"}
{"Compound": "Nc1nc(F)nc2c1ncn2[C@@H]1O[C@H](CO)[C@@H](O)[C@@H]1O", "activity": "inactive"}
{"Compound": "CCOC(=O)C1=C(C)NC(C)=C(C(=O)OC)C1c1cccc(Cl)c1Cl (stereo not drawn)", "activity": "inactive"}
{"Compound": "O=C(O)c1cc(/N=N/c2ccc(S(=O)(=O)Nc3ccccn3)cc2)ccc1O", "activity": "inactive"}
{"Compound": "NC(=O)OCC(COC(N)=O)c1ccccc1.O", "activity": "inactive"}
{"Compound": "COc1ccccc1OCC(O)COC(N)=O (stereo not drawn)", "activity": "inactive"}
{"Compound": "Cc1cccc(C)c1NC(=O)C(C)N (stereo not drawn)", "activity": "inactive"}
{"Compound": "CC(=O)SCC(Cc1ccccc1)C(=O)NCC(=O)OCc1ccccc1 (stereo not drawn)", "activity": "inactive"}
{"Compound": "CC(=O)[C@H]1CC[C@H]2[C@@H]3C[C@H](C)C4=CC(=O)CC[C@]4(C)[C@H]3[C@@H](O)C[C@]12C", "activity": "inactive"}
{"Compound": "CC(O)CO.N[C@@H](C(=O)N[C@@H]1C(=O)N2C(C(=O)O)=C(CSc3cn[nH]n3)CS[C@H]12)c1ccc(O)cc1", "activity": "inactive"}
{"Compound": "CN1[C@@H]2CC[C@H]1C[C@@H](OC(c1ccccc1)c1ccccc1)C2.CS(=O)(=O)O", "activity": "inactive"}
{"Compound": "CCc1nn(CCCN2CCN(c3cccc(Cl)c3)CC2)c(=O)n1CCOc1ccccc1", "activity": "inactive"}
{"Compound": "COc1cc2nc(N3CCN(C(=O)C4CCCO4)CC3)nc(N)c2cc1OC (stereo not drawn)", "activity": "inactive"}
{"Compound": "COc1nc(C)nc(Cl)c1NC1=NCCN1.Cl", "activity": "inactive"}
{"Compound": "COc1ccc(CN2CCN(C(c3ccc(F)cc3)c3ccc(F)cc3)CC2)c(OC)c1OC.Cl.Cl", "activity": "inactive"}
{"Compound": "Cc1cccc(Nc2ccncc2S(=O)(=O)NC(=O)NC(C)C)c1", "activity": "inactive"}
{"Compound": "CC(C)C[C@H](NC(=O)[C@@H](O)[C@H](N)Cc1ccccc1)C(=O)O", "activity": "inactive"}
{"Compound": "O=C(O)CCc1nc(-c2ccccc2)c(-c2ccccc2)o1", "activity": "inactive"}
{"Compound": "c1cnc(N2CCN(Cc3ccc4c(c3)OCO4)CC2)nc1", "activity": "inactive"}
{"Compound": "CC(=O)CC(c1ccccc1)c1c(O)c2ccccc2oc1=O (stereo not drawn)", "activity": "inactive"}
{"Compound": "Nc1nc2c(ncn2CCC(CO)CO)c(=O)[nH]1", "activity": "inactive"}
{"Compound": "Cl.Cn1c(NCCN(CCO)CCCc2ccc([N+](=O)[O-])cc2)cc(=O)n(C)c1=O", "activity": "inactive"}
{"Compound": "CN(C)CCCSc1ccccc1NC(=O)/C=C/c1ccccc1", "activity": "inactive"}
{"Compound": "Cc1ccc(S(=O)(=O)NC(=O)NN2CCCCCC2)cc1", "activity": "inactive"}
{"Compound": "NS(=O)(=O)c1cc2c(cc1Cl)N=CNS2(=O)=O", "activity": "inactive"}
{"data": "Block 2", "SMILES": "CN(C)CC/C=C1/c2ccccc2Sc2ccc(Cl)cc21", "cell line": "MCF7", "technique": "microarray", "tested at": "concentration not given", "baseline": "DMSO"}
{"refers to": "SQLE mRNA", "log2 fold change": 1.93}
{"refers to": "UPP1 mRNA", "log2 fold change": 1.1}
{"refers to": "TES mRNA", "log2 fold change": 2.18}
{"refers to": "ZNF292 mRNA", "log2 fold change": 1.32}
{"data": "Other studies, line by line"}
{"Compound": "COC(=O)N1CCN(C(=N)c2cccc(NC(=O)Nc3ccc(S(=O)(=O)NCc4ccc(S(N)(=O)=O)cc4)cc3)c2)CC1", "tested on": "Plasmodium falciparum", "test": "parasite growth", "system": "Dd2", "measurement": "IC50", "result": "3.1 nM"}
{"Compound": "O=C(NCCCC1CCCCC1)c1ccc(CNC(=O)c2cnn(-c3ccccc3)c2C(F)(F)F)cc1", "tested on": "human MAPK14", "test": "cell-based", "measurement": "IC50", "result": "13000 nM"}
{"Compound": "CN1CCc2nc(C(=O)N[C@@H]3C[C@@H](C(=O)N(C)C)CC[C@@H]3NC(=O)C(=O)Nc3ccc(Cl)cn3)sc2C1", "system": "human, mild renal impairment", "setting": "dose not given, eGFR above 50 mL/min", "how to read": "baseline: normal renal function", "measurement": "AUC(0-inf) increase", "result": "32%"}
{"Compound": "O=C(O)CCCOc1ccc(F)cc1-c1cc(-c2ccccc2C(F)(F)F)n(-c2ccccc2)n1", "tested on": "other FABP isoforms", "test": "binding", "measurement": "Kd", "result": "≥ 240 nM"}
{"Compound": "NC1(C(=O)N[C@@H](CCO)c2ccc(Cl)cc2)CCN(c2nc[nH]c3nccc2-3)CC1", "system": "human", "measurement": "half-life", "result": "8 h"}
{"Compound": "CCc1cnn2c(NCc3ccc[n+]([O-])c3)cc(N3CCCC[C@H]3CCO)nc12", "tested on": "HKDC1 protein kinase activity", "test": "refers to: RBBP5 phosphorylation", "setting": "30 µM", "measurement": "inhibition", "result": "inhibited"}
{"Compound": "CCOC(=O)c1cc2cc(-c3cc(C(=O)NCc4ccc(C(=O)O)cc4)nn3C)ccc2[nH]1", "tested on": "MMP13", "test": "biochemical activity", "measurement": "IC50", "result": "1 nM"}
{"Compound": "CCCCC/C=C\\C/C=C\\CCCCCCCCC(CCCCCCCC/C=C\\C/C=C\\CCCCC)OC(=O)CCCN(C)C", "system": "human patients, urine", "setting": "96 h, DMBA", "how to read": "baseline: dose", "measurement": "urinary recovery of metabolite", "result": "5.5%"}
{"Compound": "O=C(Nc1ccc(Cl)c(Cl)c1)Nc1ccc(Cl)c(Cl)c1", "tested on": "Plasmodium falciparum", "test": "parasite growth", "system": "3D7", "measurement": "IC50", "result": "1160 nM"}
{"Compound": "CN(C)CCCN1c2ccccc2CCc2ccccc21", "tested on": "dopamine D2 receptor", "test": "binding", "measurement": "Ki", "result": "726 nM"}
{"Compound": "COc1ccc2cc(OCC3(C(=O)O)CN(C(=O)c4ccc(F)cc4)C3)ccc2c1", "tested on": "NQO2", "measurement": "IC50", "result": "530 nM"}
{"Compound": "CCc1c(N(CC)C2CCOCC2)cc2oc(CN3CCCCC3)cc2c1C(=O)NCc1c(C)cc(C)[nH]c1=O", "system": "patients", "setting": "dose not given", "measurement": "anaemia incidence", "result": "41%"}
{"Compound": "COc1ccc2c(c1)c(CC(=O)O)c(C)n2C(=O)c1ccc(Cl)cc1", "measurement": "log Kow", "result": 4.27}
{"Compound": "Cc1ccc(Nc2nccc(N(C)c3ccc4c(C)n(C)nc4c3)n2)cc1S(N)(=O)=O", "system": "post-chemotherapy soft tissue sarcoma", "setting": "dose not given", "measurement": "duration of response", "result": "~9 months"}
{"Compound": "C[C@H](c1cccc(C#N)c1)n1cc(Cl)cc(C(N)=O)c1=N", "tested on": "ADRA1D", "test": "cellular activity", "measurement": "IC50", "result": "15 nM"}
{"Compound": "CNC(=O)c1ccc(N2C(=S)N(c3ccc(C#N)c(C(F)(F)F)c3)C(=O)C2(C)C)cc1F", "test": "intestinal P-gp transport, inhibitor", "system": "human", "setting": "concentration not given", "measurement": "talazoparib exposure", "result": "increased"}
{"Compound": "CC(C)c1nc(N(C)S(C)(=O)=O)nc(-c2ccc(F)cc2)c1/C=C/[C@@H](O)C[C@@H](O)CC(=O)O", "system": "hepatocytes", "setting": "liver", "measurement": "passive diffusion clearance", "result": "0.0025 mL/min/10⁶ hepatocytes"}
{"Compound": "CC(=O)c1c(C)c2cnc(Nc3ccc(N4CCNCC4)cn3)nc2n(C2CCCC2)c1=O", "system": "human recurrent Rb-positive glioblastoma", "setting": "concentration not given, 6 months, clinical study", "measurement": "patients progressed", "result": "95%"}
{"Compound": "CC(O)C(C)n1ncn(-c2ccc(N3CCN(c4ccc(OCC5COC(Cn6cncn6)(c6ccc(Cl)cc6Cl)O5)cc4)CC3)cc2)c1=O (stereo not drawn)", "tested on": "CYP3A4 human", "test": "substrate", "measurement": "Vmax", "result": "0.095 pmol/min/mg protein"}
{"Compound": "CN(C)C(=O)c1cc2cnc(Nc3ccc(N4CCNCC4)cn3)nc2n1C1CCCC1", "system": "human recurrent glioblastoma, contrast-enhancing tumour", "setting": "dose not given", "measurement": "unbound tumour concentration", "result": "2.15 µmol/kg"}
{"Compound": "CC1=C(/C=C/C(C)=C/C=C/C(C)=C\\C(=O)O)C(C)(C)CCC1", "tested on": "dopamine transporter", "measurement": "IC50", "result": "> 10000 nM"}
{"Compound": "CC(C)NCC(O)COc1ccc(CC(N)=O)cc1 (stereo not drawn)", "measurement": "log Kow", "result": 0.16}
